Assay results collected from several papers.
Numbered parts are unrelated; each lists some results of a single study.

Block 1
Compound: CN1CCN(C(=O)c2ccc(NC(=O)Nc3ccc(N(C)c4ccnc(Nc5ccc(CS(C)(=O)=O)cc5)n4)cc3)cc2)CC1
Effect on: binding
Tested at: 1 µM
| target | method | remaining binding [%] |
| --- | --- | --- |
| NTRK3 (Homo sapiens, UniProt Q16288) | competition with immobilised ligand | 2 |
| KIT (Homo sapiens, UniProt P10721, A829P) |  | 0 |
| DCLK3 (Homo sapiens, UniProt Q9C098) | competition with immobilised ligand | 100 |
| MAP3K10 (Homo sapiens, UniProt Q02779) |  | 82 |
| Ribosomal protein S6 kinase alpha-3, N-terminal kinase domain (RPS6KA3, Homo sapiens, UniProt P51812) | competition with immobilised ligand | 57 |
| PLK3 (Homo sapiens, UniProt Q9H4B4) |  | 100 |
| PAK5 (Homo sapiens, UniProt Q9P286) |  | 67 |

Block 2
Species: human
Matrix: microsomes or S9
Tested at: 2 µM
Time: 0.5 h
| SMILES | remaining compound |
| --- | --- |
| Cc1cc(C)[nH]/c(=N\N=C\C2=C(O)CC(C)CC2=O)n1 (centres unmarked) | 80.7% |
| Cc1cccc(C(=O)/N=c2\c(C)cccn2C(=O)c2cccc(C)c2)c1 | 83.1% |
| CCN(C(=O)COC(=O)c1cc2c(C)nn(-c3ccccc3)c2s1)c1cccc2ccccc12 | 9.76% |
| CC(NS(C)(=O)=O)c1nnc(N2CC3(CCC3)c3ccccc32)n1C (centres unmarked) | 84% |
| Cc1cc(O)cc(NS(=O)(=O)c2cnn3c2OCC(C)(C)C3)c1 | > 100% |
| CCN(CC)C(=O)c1nc2cc(-c3ccc(C#N)cc3)sc2c(=O)[nH]1 | 77.1% |
| CC(C)n1nc(-c2ccc3ncccc3c2)c2cnc3cc(F)ccc3c21 | 31.1% |
| Cc1nnc(C)n1/N=C/c1ccc(Br)cc1 | 93.5% |
| NC(=O)c1cccc2c1nc1scc(CN3CCCC3)n12 | 53.6% |

Block 3
Cell line: HaCaT
Tested at: 100 µM
Time: 60 h
| Compound | viability [%] |
| --- | --- |
| CN1CCN(c2c(F)cc3c(=O)c(C(=O)O)cn4c3c2OCN4C)CC1 | 127 |
| CC(C)C(=O)Nc1ccc([N+](=O)[O-])c(C(F)(F)F)c1 | 43.5 |
| C[C@H](CCC(=O)O)[C@H]1CC[C@H]2[C@@H]3CC[C@@H]4C[C@H](O)CC[C@]4(C)[C@H]3CC[C@]12C | 144 |
| CCOC(=O)n1ccn(C)c1=S | 113 |
| OCc1ccc(O[C@@H]2O[C@H](CO)[C@@H](O)[C@H](O)[C@H]2O)cc1 | 139 |
| Nc1nc(=O)n([C@@H]2CS[C@H](CO)O2)cc1F | 130 |

Block 4
SMILES: CCN(c1nc(N)c(C(=O)N=C(N)N)nc1Cl)C(C)C
Effect on: β-arrestin recruitment
Mode: agonist
Method: PRESTO-Tango
Tested at: 10 µM
Baseline: untreated
| target | fold over basal |
| --- | --- |
| BDKRB1 (Homo sapiens, UniProt P46663) | 1.03 |
| SUCNR1 (Homo sapiens, UniProt Q9BXA5) | 1.11 fold |
| TAAR1 (Homo sapiens, UniProt Q96RJ0) | 0.82 fold |
| BDKRB2 (Homo sapiens, UniProt P30411) | 1.29 |
| AGTR1 (Homo sapiens, UniProt P30556) | 0.72 |
| GPR3 (Homo sapiens, UniProt P46089) | 1.84 |

Block 5
Compound: CC(=O)O/N=C1/C(c2c(O)[nH]c3cc(Br)ccc23)=Nc2ccccc21
Effect on: enzyme activity
Mode: inhibitor
Tested at: 0.5 µM
Baseline: control
| target | remaining activity [%] |
| --- | --- |
| ERBB2 (Homo sapiens, UniProt P04626) | 114 |
| CSNK1D (Homo sapiens, UniProt P48730) | 92.3 |
| SGK2 (Homo sapiens, UniProt Q9HBY8) | 92.8 |
| PIM1 (Homo sapiens, UniProt P11309) | 79.8 |
| JAK2 (Homo sapiens, UniProt O60674) | 105 |
| RPS6KA3 (Homo sapiens, UniProt P51812) | 91.9 |
| PAK4 (Homo sapiens, UniProt O96013) | 92.7 |
| CAMK1 (Homo sapiens, UniProt Q14012) | 102 |
| IGF1R (Homo sapiens, UniProt P08069) | 106 |
| MUSK (Homo sapiens, UniProt O15146) | 68.5 |
| PRKCZ (Homo sapiens, UniProt Q05513) | 92.2 |
| FES (Homo sapiens, UniProt P07332) | 115 |
| ACVRL1 (Homo sapiens, UniProt P37023) | 107 |
| YES1 (Homo sapiens, UniProt P07947) | 46.4 |
| SIK2 (Homo sapiens, UniProt Q9H0K1) | 54.6 |
| JAK1 (Homo sapiens, UniProt P23458) | 104 |
| MELK (Homo sapiens, UniProt Q14680) | 93.9 |
| DYRK1A (Homo sapiens, UniProt Q13627) | 111 |
| CSNK1E (Homo sapiens, UniProt P49674) | 55.8 |
| PAK5 (Homo sapiens, UniProt Q9P286) | 89.1 |
| PRKCQ (Homo sapiens, UniProt Q04759) | 72 |
| EPHB3 (Homo sapiens, UniProt P54753) | 94.2 |
| FLT1 (Homo sapiens, UniProt P17948) | 98.6 |
| MAP3K20 (Homo sapiens, UniProt Q9NYL2) | 77 |
| TEC (Homo sapiens, UniProt P42680) | 131 |

For quick reference, copied from above (block 2):
| SMILES | remaining compound |
| --- | --- |
| Cc1cc(C)[nH]/c(=N\N=C\C2=C(O)CC(C)CC2=O)n1 (centres unmarked) | 80.7% |
| CCN(C(=O)COC(=O)c1cc2c(C)nn(-c3ccccc3)c2s1)c1cccc2ccccc12 | 9.76% |
| Cc1nnc(C)n1/N=C/c1ccc(Br)cc1 | 93.5% |
| CCN(CC)C(=O)c1nc2cc(-c3ccc(C#N)cc3)sc2c(=O)[nH]1 | 77.1% |
| NC(=O)c1cccc2c1nc1scc(CN3CCCC3)n12 | 53.6% |
| Cc1cccc(C(=O)/N=c2\c(C)cccn2C(=O)c2cccc(C)c2)c1 | 83.1% |
